Published values from different studies.
Parts stem from different laboratories: compare values within a part only.

Series 1 — technique: RNA Bind-n-Seq; molecule type: RNA; medium: in vitro; tested at: 200 nM; setting: whole 134-nt RNA, ends assumed; together with: 150 mM LiCl; reference: input library; direction: higher = stronger binding; all molecules: 7-deaza-guanosine replaces G
Target: Fragile X messenger ribonucleoprotein 1, C-terminal low-complexity region (Fmr1, Mus musculus, UniProt P35922)
All sequences stand within: GGGAGUUCUACAGUCCGACGAUC … UGGAAUUCUCGGGUGUCAAGG
Strand | log2 enrichment
CCUCAAGUCCUGUGCUACACAUCGUAUGUACCGAAUCGGAAGGAAGGAAGGGAAAGUAUUAUGUUACGCCGUUCGGAUCUGCACUUCCAG | -0.341
AAGUCCUGUGCUACACAUCGUAUGUACCGAAUCGGUUUGGAAAAAGGAAAAAAAGGAAAGUAUUAUGUUACGCCGUUCGGAUCUGCACUU | -1.58
UGGCUUCGAAGUACAGUCUUUGCAGGAUGCAGGAAAUCAGCUUGGUAUGGAGGAUACAUCUCUGAGCUCUGGAAUGCUCACCCAGAACAC | -2.46
CCUGUGCUACACAUCGUAUGUACCGAAUCGGGGUUUGGGGUUUUUUUGGGGAAAAAGGGGAAAGUAUUAUGUUACGCCGUUCGGAUCUGC | -0.825
CCUGUGCUACACAUCGUAUGUACCGAAUCGGGGUUUUUGGGGAAAAAAAGGGGUUUGGGGAAAGUAUUAUGUUACGCCGUUCGGAUCUGC | -2.13
UCCUGUGCUACACAUCGUAUGUACCGAAUCGGGCCCCCCGGGGCCCCCCGGCCCCCCGGGAAAGUAUUAUGUUACGCCGUUCGGAUCUGC | -2.82
UCCUGUGCUACACAUCGUAUGUACCGAAUCGGAAAAAAGGAAAAAAGGGAAAAAAGGGGAAAGUAUUAUGUUACGCCGUUCGGAUCUGCA | -0.976
AGUCCUGUGCUACACAUCGUAUGUACCGAAUCGGGAAAAAGGGGAAAAAGGAAAAAGGAAAGUAUUAUGUUACGCCGUUCGGAUCUGCAC | -0.769

Series 2 — technique: protein binding microarray; molecule type: double-stranded DNA, one strand shown; medium: in vitro; tested at: not given; reference: not given; direction: higher = stronger binding
Target: Histone acetyltransferase KAT6A, winged helix 2, GST fusion (KAT6A, Homo sapiens, UniProt Q92794, residues 85-181)
Setting: 8-mer, flanks averaged, mean of 2 arrays, mostly near background
Residues (chain): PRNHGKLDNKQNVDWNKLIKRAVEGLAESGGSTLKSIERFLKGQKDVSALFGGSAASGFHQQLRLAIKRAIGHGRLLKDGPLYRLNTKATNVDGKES
Strand | E-score
AGTAAACT | 0.0164
CCTAAACC | -0.0919
GACGAAAA | 0.16
ACGTCGAT | -0.0818
AAAAGGGG | 0.00449
ACACCGAG | 0.144
AATAACAC | -0.133
AAGAAGTG | -0.252
CATCCGGC | 0.187
GGATTTGA | -0.0219
CCGTTGAC | -0.197
GAGTACAC | -0.0321
GACATGGA | -0.0614
ATCTATGC | -0.0206
AGAAGGTA | 0.00137
ACTGAGAA | -0.00259

Series 3 — technique: RNA Bind-n-Seq; molecule type: RNA; medium: in vitro; tested at: 365 nM; reference: no-protein control; direction: higher = stronger binding
Target: RNA binding protein fox-1 homolog 2, RRM domain, GST-SBP tag (RBFOX2, Homo sapiens, UniProt O43251-10, residues 100-194)
Setting: natural RNA segment, single round, ends assumed
All sequences stand within: GGGAGUUCUACAGUCCGACGAUC … UGGAAUUCUCGGGUGCCAA
Construct (chain): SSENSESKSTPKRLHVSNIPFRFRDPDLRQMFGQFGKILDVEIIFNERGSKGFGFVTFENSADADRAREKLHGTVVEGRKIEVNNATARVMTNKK
Strand | RBNS enrichment (R)
GAGCUGUGCCAGAUGCUAGACACAUUUAAUAGCUGUCAGAUCAGCUCAUGAUCAUAUCAUGAGAAAACCGCCUUUUCAUAUUUAUUUUUCUAACUGAUCACAUACGCAGG | 0.38
CUCUUUGUGACCACAGGGUUGCAGGACGUUCUUGAAAGAUGUGUCACUAAAUGUUUGUUUUUGCUCAUCUCUUUCUGAGGUCAUCUGCAGAGAGUGCCCCAUGCCUUCUU | 0.584
UGUACACUCCACUCUGCUACAGCAGCAUGGUGAGGACCCACCACAGGAGCUGUGCUCCUCAGAGGGCAGAAUCUACAUUAAGUGCCGCCCAAAGGAGAGUGCGUUGUCAU | 0.284
ACCGCGGGGCGGGGAGCGUGUGGCUGUGCCCCUUCUCUUUAAUCUCAUUUAAUUUUUAUUAAACAUGCUCAGUACCUGUGUUGAGAAAAGGCUUUCUUUAUCCUAAAGAU | 0.539
UCUACUGAGCUGGGCUACUGUACACAAUGGACAGUGUGCAUUUCUGUACAGGUUACGGUUCUAUGCAUAAACAUUUUAGAAAACAAACAUAGAAACUUAGGCACUUUGCU | 0.463
AGAAACCAAAGCUGAGUGUUUUAAAGAAUGAACAUAUCUGGAAAUCCUUGCUCUCAAAACAAAACAAUAUAAUCUAUCAAAGGUGUUUUACUCAGUGUUCUAAUUUUUAA | 0.674
UGUGUGGCUGACUUUUGUGUAAGAAUCAUAGUUUGCUUUAGAAUACAAAUCUUUAAGUCAUUUUAACUUUUUUUUCUGCCUUACGAUAUAAAAAUAUUUAUCUUAGAAUU | 0.866
UGCUUAAAGCACGGCUUACUUCAUCUGCUCCUUACACACUAAAAUGCUGUUAGUGUGCUCAACUACAGAAAUAGCCGCUGCUAAGUGAUGUAGAUUUUCUACUUGAAUAU | 0.478

Series 4 — technique: protein-binding microarray; molecule type: double-stranded DNA, one strand shown; medium: in vitro; tested at: 2200 nM top; setting: 60-bp whole probe; together with: salmon DNA 0.4 mg/ml; reference: random background probes; direction: higher = stronger binding; all sequences stand within: GCCTAGCAC … GTCTTGATTCGCTTGACGCTGCTG
Target: Interferon regulatory factor 7, full length, phosphomimetic (IRF7, Homo sapiens, UniProt Q92985, residues 1-503, S471D/S472D/S475D/S476D/S477D/S483D/S484D/S487D)
Chain of UniProt Q92985 (whole entry, unmodified, looked up): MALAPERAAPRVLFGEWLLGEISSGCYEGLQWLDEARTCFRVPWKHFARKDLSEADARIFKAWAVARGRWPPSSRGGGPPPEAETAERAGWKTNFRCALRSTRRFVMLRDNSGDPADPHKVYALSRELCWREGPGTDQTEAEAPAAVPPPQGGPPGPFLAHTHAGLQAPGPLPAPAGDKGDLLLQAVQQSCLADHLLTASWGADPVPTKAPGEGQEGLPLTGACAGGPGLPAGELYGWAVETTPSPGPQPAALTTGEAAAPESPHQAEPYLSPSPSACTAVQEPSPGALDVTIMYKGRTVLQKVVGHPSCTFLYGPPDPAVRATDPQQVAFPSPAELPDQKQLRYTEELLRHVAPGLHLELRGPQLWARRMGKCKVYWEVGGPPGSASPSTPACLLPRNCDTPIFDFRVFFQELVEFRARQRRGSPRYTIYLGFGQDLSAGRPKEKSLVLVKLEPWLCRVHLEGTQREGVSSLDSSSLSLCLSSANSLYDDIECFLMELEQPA
Strand | fitted relative affinity
GACGGACTGGACGCTGGGGACGTGCTA | -1.04 z-score
GACGGTTTTGGTCTCGGGACGTGCTAG | 1.15 z-score
TTATGTATCGGACTGGGTTAGTGCTAG | 0.588 z-score
TCAGGTATCGACTATCGGTTAGTGCTA | 1.03 z-score
TTAGGTTTCGGGCCTGGGTTAGTGCTA | 2.03 z-score
TTAGAACTGGGTTTCGGTTAGTGCTAG | 4.14 z-score
TTAGATATCAGTATGGATTAGTGCTAG | -0.199 z-score
GACGGTATAGACTTTCGGGACGTGCTA | 2.26 z-score
TTAGGGCTGGACTATCGGTTAGTGCTA | -0.972 z-score
GAACTTTGGCCTCTAGGTTTGTGCTAG | 0.305 z-score
TCAGCTCTTTCGTTACTTACTGTGCTA | 2.78 z-score
TTTGTTTCCATTTTCTGAATGTGCTAG | 6.36 z-score
GACCGTCTCCTACTGCTGACGTGCTAG | 0.986 z-score
GACGGTCTCGGTTTCGGGCCGTGCTAG | 2.94 z-score
GACGGTTCCGGTTTCCGGACGTGCTAG | 4.43 z-score
TTAGGTATCGGCTTCGGTTAGTGCTAG | 0.709 z-score
GACAGTTTCCTTTTCCTGACGTGCTAG | 6.41 z-score
CACGGTATCGACTTTCGGGACGTGCTA | 3.31 z-score
TCACTTCTGTTTTTGCTACTGTGCTAG | 3.25 z-score

Some of these lines once more (series 4):
Strand | fitted relative affinity
GACGGTTCCGGTTTCCGGACGTGCTAG | 4.43 z-score
TTTGTTTCCATTTTCTGAATGTGCTAG | 6.36 z-score
TTAGGTTTCGGGCCTGGGTTAGTGCTA | 2.03 z-score
